Results pooled from the literature.

C=CC(=O)Nc1cc(Nc2nccc(-c3cn(C)c4ccccc34)n2)c(OC)cc1N(C)CCN(C)C — patients with adverse events (refers to: treatment-related grade ≥3 Neutropenia; EGFR-mutant MET-altered NSCLC; oral, dose not given, all): 3%
NC(=O)N1c2ccccc2C=Cc2ccccc21 — patients with Toothache (male patients; oral, dose not given, on-treatment adverse events): 7%
CNC(=O)c1ccc(-c2cnc3ncc(Cc4ccc5ncccc5c4)n3n2)cc1F — patients with adverse event (refers to: Pruritus, all grades; cancer patients; oral, 600 mg twice daily, other expansion cohort, any causality): 0%
C[C@@H](Nc1cc(F)cc(F)c1)c1cc(C(=O)N(C)C)cc2c(=O)cc(N3CCOCC3)oc12 — patients discontinuing for AE (CTCAE v4, refers to: abdominal pain; patients with advanced solid tumours; oral, dose not given, phase I dose finding): 1.6%
COc1ccc([C@@H](O)c2cc(-c3ncnc4cc(N5CCOCC5)ccc34)c(F)cc2Cl)nn1 — patients with drug-related AE (refers to: Fatigue; locally advanced rectal cancer patients; dose not given, all dose groups, together with: capecitabine plus radiotherapy): 32%
C=CC(=O)NC1CCN(c2ncc3ncnc(Nc4ccc(Oc5ccc6c(c5)ncn6C)c(C)c4)c3n2)CC1 — patients with Flatulence (male patients; oral, dose not given, treatment-related adverse events): 0%
O=C(Nc1nc2cccc(-c3ccc(CN4CCS(=O)(=O)CC4)cc3)n2n1)C1CC1 — patients with TEAE (refers to: angina pectoris; rheumatoid arthritis patients; oral, 100 mg twice daily, 4 weeks): 0%
C[C@@H](c1ccc2nccn2c1)n1nnc2ncc(-c3cnn(C)c3)nc21 — patients with treatment-related AEs (refers to: Fatigue grade ≥3; EGFR-mutant MET-altered NSCLC; oral, study): 0%
COc1cc(Nc2ncc3c(n2)-c2ccc(Cl)cc2C(c2c(F)cccc2OC)=NC3)ccc1C(=O)O — patients with skin hyperpigmentation (cancer patients; oral, dose not given, all grades any attribution, together with: pembrolizumab): 4%
Cc1cc(NC2CCN(C(=O)OC3CCN(C(=O)/C=C/CN(C)C)C3)CC2)n2ncc(C(C)C)c2n1 (stereo not shown) — patients with TEAE (CTCAE v4.0, refers to: Headache; patients with advanced solid tumours; oral, dose not given, all schedules, grade 3 or higher): 0%
CCOc1c([C@H](C)n2nc(C)c3c(N)ncnc32)cc(Cl)c(F)c1[C@@H]1CNC(=O)C1 — patients (refers to: QRS >100 to ≤110 ms; previously treated B-cell malignancy; oral, 15 mg once daily, baseline below thresholds): 0%
COc1cc2nccc(Oc3ccc(NC(=O)c4cc5c(n(-c6ccccc6)c4=O)CCCC5=O)nc3)c2cc1OC — patients with TEAEs grade ≥3 (CTCAE; patients with relapsed/refractory AML; oral, 10 mg once daily): 85.7%
Cc1cc(-c2nnc(N)nc2-c2ccc(F)cc2)cc(Cl)n1 — patients with immune-mediated AE (refers to: Hyperthyroidism; IO-naive colorectal cancer patients; oral, dose not given, treatment-related, grade 1): 0%

Some of these lines once more:
CCOc1c([C@H](C)n2nc(C)c3c(N)ncnc32)cc(Cl)c(F)c1[C@@H]1CNC(=O)C1 — patients (refers to: QRS >100 to ≤110 ms; previously treated B-cell malignancy; oral, 15 mg once daily, baseline below thresholds): 0%
COc1cc2nccc(Oc3ccc(NC(=O)c4cc5c(n(-c6ccccc6)c4=O)CCCC5=O)nc3)c2cc1OC — patients with TEAEs grade ≥3 (CTCAE; patients with relapsed/refractory AML; oral, 10 mg once daily): 85.7%
